Published values collected from several papers.
A part holds a random share of what one study measured.

Series 1 — method: protein-binding microarray; form: double-stranded DNA, one strand shown; medium: in vitro; concentration: not given; reading: higher = stronger binding
Target: Transcription factor Sp1 (SP1, Homo sapiens, UniProt P08047, residues 1-785, full length assumed)
Sequence of UniProt P08047 (whole entry, looked up): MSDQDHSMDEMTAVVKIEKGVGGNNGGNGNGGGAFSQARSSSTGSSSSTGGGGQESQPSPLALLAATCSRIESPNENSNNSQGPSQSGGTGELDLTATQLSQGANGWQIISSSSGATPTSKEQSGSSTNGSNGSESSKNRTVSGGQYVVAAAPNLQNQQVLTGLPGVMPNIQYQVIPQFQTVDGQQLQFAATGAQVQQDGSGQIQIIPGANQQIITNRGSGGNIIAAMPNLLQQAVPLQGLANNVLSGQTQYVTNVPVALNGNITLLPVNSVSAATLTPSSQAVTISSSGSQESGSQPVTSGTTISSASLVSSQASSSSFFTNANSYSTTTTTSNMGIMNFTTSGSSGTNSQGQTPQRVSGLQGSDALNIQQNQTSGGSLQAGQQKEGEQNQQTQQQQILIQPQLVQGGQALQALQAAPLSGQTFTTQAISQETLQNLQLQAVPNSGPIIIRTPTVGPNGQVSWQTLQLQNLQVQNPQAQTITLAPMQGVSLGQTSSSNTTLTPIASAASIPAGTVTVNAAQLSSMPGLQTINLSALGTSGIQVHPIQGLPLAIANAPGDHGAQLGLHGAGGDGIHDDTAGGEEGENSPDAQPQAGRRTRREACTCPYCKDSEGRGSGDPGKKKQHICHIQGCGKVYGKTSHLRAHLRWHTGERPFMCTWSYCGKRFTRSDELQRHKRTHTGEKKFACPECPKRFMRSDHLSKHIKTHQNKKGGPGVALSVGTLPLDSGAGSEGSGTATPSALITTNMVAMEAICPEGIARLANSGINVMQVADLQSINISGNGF
Setting: k-mer, scored over probes, only values ≥0.25
| Sequence | E-score |
| --- | --- |
| CCGCCCTC | 0.442 |
| CAAGGGGA | 0.295 |
| AGGGGAAG | 0.299 |
| GTGTGGGA | 0.325 |
| GTTTCGTA | 0.272 |
| CCCGTCCC | 0.286 |
| CATAAGGG | 0.297 |
| TCGCCCCA | 0.265 |

Series 2 — method: RNA Bind-n-Seq; form: RNA; medium: in vitro; concentration: 365 nM; baseline: no-protein control; reading: higher = stronger binding
Target: RNA binding protein fox-1 homolog 2, RRM domain, GST-SBP tag (RBFOX2, Homo sapiens, UniProt O43251-10, residues 100-194)
Setting: natural RNA segment, single round, ends assumed
Constant ends, left off below: GGGAGUUCUACAGUCCGACGAUC … UGGAAUUCUCGGGUGCCAA
Construct (chain): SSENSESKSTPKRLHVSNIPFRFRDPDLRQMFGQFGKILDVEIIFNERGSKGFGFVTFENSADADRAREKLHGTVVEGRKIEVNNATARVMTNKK
| Sequence | RBNS enrichment (R) |
| --- | --- |
| UGUGCCUGUGUGUGUAUAAAAAUAACCAUUGAAGCUAACUUGCUAAUGUACUUAGGCAAGCCACUUCCCAUCUCUGGGCCUCGUCUUUCCUCCCUCUAAAAUCAAAGAGC | 0.348 |
| UUUGGUUUCUGUAUUUUUCACAAUGAUUAAUGAACAAAAACAAAGAGAAAAAAACACACAUCAAUUAAAGGAGACAAAAAGAGGCAGAGCGAGUAGAGAGCAGCCCUCAU | 0.569 |
| UACUGAGAUGAAGAUCGCCCAGCUGCCAGGACCACCCCAGGACAAGUUAGAGCACUGUUUAGCUCCUUUGUCUGUGUGAUAGACCUAAGAACUGUAUUAGUGUUGUACCA | 0.392 |
| UAUCAUAUAUAUGGGUACUCUGUAAUAUCUAAAAGCUUAGAAAUGGGAUCUUGCUCACAAGAAUCACUUUUAAGAUCUUUUAGGGCUGUUAAUUUUAUUUUUCUCAGUGU | 0.378 |
| UUUCAAGGUCAUCUUAAAAAAGAUGUGCGUUGUAUAUUUUAACUACAUUCUCUACACUCUAACAUUAACAUAUCUAUUCAAAUUUGUCUAGUUGCCAAUUGUCUUCAGAG | 0.451 |
| GUCGAUCUUUGAUAGUAUGUUCUGGAGUCUACUCCCCAGGAGCCAGGACAGGCGUGAAGAUGGAGUCCUUGUCGCAGCUGGAGCCUUGCCUAGCUGGUGAUCACACAGCC | 0.363 |
| AAGCUCGGGAAGUGGCUGGCUGGCUGGCUGGCAUGUCUAGACGCCUGGUGAGUUAUCAGCCAGUUAAACUUGUAAGCCAGUUUUGUUUAUAAUAAAGAUAUAAGUGGAUU | 1.73 |
| AUUUUAUUUGUUUUGUUUAAAGCUACAUGUGCUUUUUUCUGUAAAUAAUAAAUUUUUGUAGAUAGUCUUGAUGUGUUAUCUUUGAUUUCUCUGUGUAAAACCAGCUGGCU | 0.729 |

Series 3 — effect on: enzyme activity; action: inhibitor; concentration: 0.5 µM; baseline: control
Target: Mitogen-activated protein kinase kinase kinase 11 (MAP3K11, Homo sapiens, UniProt Q16584)
Sequence of UniProt Q16584 (whole entry, looked up): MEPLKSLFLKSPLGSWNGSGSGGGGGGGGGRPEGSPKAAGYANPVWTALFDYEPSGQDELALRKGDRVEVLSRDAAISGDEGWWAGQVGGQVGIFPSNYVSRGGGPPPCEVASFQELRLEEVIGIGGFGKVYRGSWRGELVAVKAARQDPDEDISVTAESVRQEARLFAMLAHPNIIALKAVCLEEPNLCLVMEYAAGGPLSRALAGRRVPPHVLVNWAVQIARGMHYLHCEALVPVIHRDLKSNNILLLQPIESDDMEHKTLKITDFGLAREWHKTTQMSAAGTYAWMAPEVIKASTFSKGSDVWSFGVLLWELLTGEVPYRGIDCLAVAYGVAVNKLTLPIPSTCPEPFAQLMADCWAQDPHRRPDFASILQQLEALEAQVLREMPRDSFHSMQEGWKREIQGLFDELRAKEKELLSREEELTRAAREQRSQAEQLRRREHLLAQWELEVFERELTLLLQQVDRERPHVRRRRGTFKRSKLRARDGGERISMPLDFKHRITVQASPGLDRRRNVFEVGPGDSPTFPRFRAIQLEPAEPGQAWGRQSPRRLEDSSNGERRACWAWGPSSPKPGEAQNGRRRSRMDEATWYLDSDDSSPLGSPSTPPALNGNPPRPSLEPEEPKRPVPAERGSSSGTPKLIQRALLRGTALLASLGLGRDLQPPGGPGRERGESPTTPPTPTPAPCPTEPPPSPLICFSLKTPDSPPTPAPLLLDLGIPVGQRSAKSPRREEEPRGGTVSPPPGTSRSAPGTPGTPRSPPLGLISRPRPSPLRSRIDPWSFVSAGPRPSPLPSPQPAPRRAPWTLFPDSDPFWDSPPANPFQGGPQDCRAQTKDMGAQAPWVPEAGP
| SMILES | remaining activity |
| --- | --- |
| Nc1ccc2ncnc(NCCc3ccc(Oc4ccccc4)cc3)c2c1 | 103% |
| C#Cc1cccc(Nc2ncnc3cc(OCCOC)c(OCCOC)cc23)c1 | 104% |
| Cn1sc(=O)n(Cc2ccccc2)c1=O | 95.3% |
| CCOC(=O)c1c(C)[nH]c(/C=C2\C(=O)Nc3ccccc32)c1C | 47% |
| Oc1ccc(-c2nc(-c3ccncc3)c(-c3ccc(F)cc3)[nH]2)cc1 | 25.2% |
| N#CC(C#N)=C(N)/C(C#N)=C/c1ccc(O)cc1 | 94.8% |
| COc1ccc(CNC(=O)Nc2ncc([N+](=O)[O-])s2)cc1 | 101% |
| Nc1[nH]nc2nc3ccccc3nc12 | 96.3% |
| O=C(Nc1cccc(Nc2cc(Nc3cccc(C(F)(F)F)c3)ncn2)c1)C1CC1 | 97.7% |
| O=C1NC(=O)C(c2cn(CCCO)c3ncccc23)=C1c1cnccn1 | 80.8% |
| Cc1cccc(-c2[nH]c(C(C)(C)C)nc2-c2ccc3c(c2)OCO3)n1 | 96.2% |
| O=C(O)c1ccc2c3c1cccc3c(=O)n1c3ccccc3nc21 | 23.7% |
| COc1ccc(C(=O)Nc2sc3c(c2C(N)=O)CCCC3)cc1OC | 96.8% |
| NCCNc1ncc(C(N)=O)c(Nc2cccc(C(F)(F)F)c2)n1 | 61.8% |

Other studies, line by line
| Structure (SMILES) | cell line | assay | setting | quantity | result |
| --- | --- | --- | --- | --- | --- |
| CC(=O)Nc1c(F)cc(C(=O)N[C@H]2CC[C@H](O)CC2)cc1O[C@@H](C)c1ccccc1 | HEK293T | high-content imaging | concentration not given, 24 h, recommended concentration | tubulin stain change | 78% |

Repeated from above (series 3):
| SMILES | remaining activity |
| --- | --- |
| CCOC(=O)c1c(C)[nH]c(/C=C2\C(=O)Nc3ccccc32)c1C | 47% |
| Oc1ccc(-c2nc(-c3ccncc3)c(-c3ccc(F)cc3)[nH]2)cc1 | 25.2% |
| N#CC(C#N)=C(N)/C(C#N)=C/c1ccc(O)cc1 | 94.8% |
| COc1ccc(CNC(=O)Nc2ncc([N+](=O)[O-])s2)cc1 | 101% |
